Measured values collected from several papers.
Every numbered part comes from another study and shows a few of its results, in no order. Changes are numbered by the printed parent chain.

Set 1
Target: CCNF, cyclin fold, Cln2 fusion (human)
Method: yeast growth competition, sequencing
Sample: yeast
Notes: strong parent motif
Baseline: not given
Reading: higher = stronger binding
Parent: WEE1 docking peptide (human); HKTFRKLRLFDTP
Substitution	normalised enrichment score
P13S	2.51
K2C	2.15
H1A	2.1
F4P	2.05
T12Y	0.957
F4A	5.17
F4W	3.29
K6S	1.06
K6G	1.81
K6T	0.963
L9A	1.63
T12A	2.5
K6W	2.81
P13K	3.33
K2R	3.2
T12R	1.92
F10D	2.15
L7V	1.2
L7N	1.29
K6H	1.69
P13M	3.03
T12H	1.94
K6I	2.01
T3A	1.34
R8G	1.91

Set 2
Target: PABPC1L2, full length, GST fusion (mouse, UniProt A0ABA7IW68)
Method: RNAcompete
Form: RNA
Sample: in vitro
Concentration: 20 nM
Notes: 7-mer, probes averaged, single round
Baseline: mean of 7-mers
Reading: higher = stronger binding
Target sequence (chain): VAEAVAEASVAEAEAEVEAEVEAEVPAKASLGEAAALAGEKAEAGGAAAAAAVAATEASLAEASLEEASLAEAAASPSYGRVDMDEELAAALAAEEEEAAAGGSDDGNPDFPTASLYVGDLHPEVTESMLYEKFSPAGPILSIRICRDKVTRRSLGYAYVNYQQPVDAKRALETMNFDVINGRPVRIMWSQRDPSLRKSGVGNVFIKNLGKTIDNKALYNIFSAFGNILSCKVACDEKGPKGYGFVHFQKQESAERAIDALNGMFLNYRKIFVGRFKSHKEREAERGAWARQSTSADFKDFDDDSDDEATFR
Oligonucleotide	7-mer Z-score
AAUAUAU	0.184
CCCGAGC	-0.327
CGUCCCG	-0.409
UUGCUAA	-0.0645
GGCUUCA	-0.0971
AUGGAGC	-0.0138
UUGCGGG	0.0388
AACCGAA	0.122
GACAAAA	6.38
CGGGUUU	-0.32
AUUGUCC	-0.231
CUGAAGU	-0.237
UUGCACA	-0.17
GGCGGUA	0.182
GAUUCUC	-0.318
CUCUCCG	-0.556
AUGUAUC	-0.186
ACUUGAU	0.0732
AAAAAUU	16.1
UCUGACC	-0.434
GGAACAC	0.126
GACACGC	-0.168
AGCACUG	-0.0808
UCUUUGA	-0.137
AUUAUGU	-0.103

Set 3
Target: Sal-like protein 4, full length isoform B (SALL4, Homo sapiens, UniProt Q9UJQ4-2, residues 1-616)
Method: universal PBM
Form: double-stranded DNA, one strand shown
Sample: in vitro
Concentration: not given
Notes: 8-mer, flanks averaged, mean of replicates
Reading: higher = stronger binding
Construct (chain): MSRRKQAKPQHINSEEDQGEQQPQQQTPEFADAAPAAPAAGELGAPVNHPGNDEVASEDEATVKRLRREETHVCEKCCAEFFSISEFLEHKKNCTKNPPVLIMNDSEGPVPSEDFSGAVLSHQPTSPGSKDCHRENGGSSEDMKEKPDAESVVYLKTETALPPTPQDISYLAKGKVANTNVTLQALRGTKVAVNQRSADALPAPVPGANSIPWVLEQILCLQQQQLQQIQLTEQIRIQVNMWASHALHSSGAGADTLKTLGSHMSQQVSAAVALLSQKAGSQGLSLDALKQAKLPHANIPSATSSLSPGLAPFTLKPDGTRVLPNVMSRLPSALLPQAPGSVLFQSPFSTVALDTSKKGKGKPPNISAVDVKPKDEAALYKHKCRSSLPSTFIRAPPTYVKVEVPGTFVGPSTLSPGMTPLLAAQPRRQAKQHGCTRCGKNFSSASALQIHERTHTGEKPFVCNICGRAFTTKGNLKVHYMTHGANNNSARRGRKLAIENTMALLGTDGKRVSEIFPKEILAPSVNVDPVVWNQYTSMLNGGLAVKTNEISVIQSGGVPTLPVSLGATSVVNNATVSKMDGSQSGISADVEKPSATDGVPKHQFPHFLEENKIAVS
Oligonucleotide	E-score
CTCGATGA	0.06
CGAGACGC	-0.126
TTAGATAA	0.254
AACGTAGC	0.0215
AAGCGTCA	-0.0558
AGCGAGAG	-0.0641
CCACCTCG	-0.244
AGCGATTG	-0.0819
ACTTTCCA	0.216
ATGCCATA	0.245
GGCATTAC	0.00939
CTCGTCTC	-0.128
ACTCAGCC	-0.259
CCAGGTTC	-0.28
CATTTCGC	0.0213
CGGCTCAA	-0.134
TCACCACA	0.00537
CGGCACTA	-0.153
CTGCTCGC	-0.203
ACTCGAAC	-0.0619
GAACGCAA	0.11

Set 4
Substance: PhoQ, residues 284 288 289 292 302 303 WVSSAF
Method: Sort-seq
Measured: YFP reporter
Sample: E. coli
Notes: PhoQ-PhoP variant library
Added: 10 µM Mg2+
Baseline: high Mg2+ state
Reading: higher = stronger signaling
target	fold induction
PhoP, residues 12 14 15 18 19 QYFSL (Escherichia coli, UniProt P23836)	9.16
PhoP, residues 12 14 15 18 19 NYFRM (Escherichia coli, UniProt P23836)	7.53
PhoP, residues 12 14 15 18 19 TQALL (Escherichia coli, UniProt P23836)	14.6

Set 5
Target: RING finger protein unkempt homolog, zinc fingers 1-6, GST-SBP tag (UNK, Homo sapiens, UniProt Q9C0B0, residues 30-357)
Chain of UniProt Q9C0B0 (30-357, looked up): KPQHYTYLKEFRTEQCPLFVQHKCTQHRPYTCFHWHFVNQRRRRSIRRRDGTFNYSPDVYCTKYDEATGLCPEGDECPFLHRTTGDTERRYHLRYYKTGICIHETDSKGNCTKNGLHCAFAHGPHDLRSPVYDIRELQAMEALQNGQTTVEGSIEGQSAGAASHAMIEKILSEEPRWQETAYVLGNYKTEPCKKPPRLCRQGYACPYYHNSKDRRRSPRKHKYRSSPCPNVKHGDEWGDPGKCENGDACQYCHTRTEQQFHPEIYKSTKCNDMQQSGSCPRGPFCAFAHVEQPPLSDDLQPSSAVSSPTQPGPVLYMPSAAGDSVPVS
Method: RNA Bind-n-Seq
Form: RNA
Sample: in vitro
Concentration: not given
Notes: RNA with constant flanks, human-mouse chimeric sites, ends assumed
Baseline: input RNA pool
Reading: higher = stronger binding
Constant ends, left off below: GGGAGUUCUACAGUCCGACGAUC … CAACAGAGGAUUGAGCAUCA
Oligonucleotide	bound/input enrichment [ratio]
GUACUGCAGCAGCAGGGAAAACUGCAGGAAGCUCUGAUGCAUUAUAAGGAGGCUAUUCGAAUCAGUCCUACCUUUGCUGAUGCCUACUCCAAUAUGGGAAACACUCUAAAGGAGAUGCAG	0.127
CCCUCCCCGGGCCACCCGCCCGCCCAAGCUCCCCGCCGAGAUCCAGGUUUCUUCUUAUUUCAUAGCAAGCCAGAACAAUGUUCUACGCACAUUUUGUCCUCAGUAAACGAGGGCCUCUGG	4.57
CGAGACAAGACAUCCAGGAACAUGCGAGGCUCCCGGAUGAAUGGGUUGCCUAGCCCCACUCACAGCGCCCACUGUAGCUUCUACCGAACCAGAACCUUGCAGGCAUUGAGUAAUGAGAAG	0.116
UUGCUACUAACUCCAUGGGUCAAGUUCCUGUGGGAAUCAUACAGGCAGUGUUUGGACCUUCUUCGAAACAAUUCUAGAGUAGAGCGCCUUUACCAUGAUAUCGCCCAACAAGCUUUCAAA	0.189
UAAGUUAAGCUUUUAAUCUUUGUAAAUUCUUAACAUUUUUAUAUUGCCAUGUUUAUUUUGUUUGGGUAAUUUGGUUCAUUAAGUACAUAGCUAAGGUAAUGAACAUCGUAAUUAUAGAUU	1.29
AAAGUGAUAACCAUGUUUGUACAGCGACAGGUAUUUUCGGAGAGCAAAGAUGAGAUUGCGUUAGUCCUCUAUGGCACAGAUGGCACUGAUAAUGCCCUUGCUGGCAAGGACCAGUAUCAG	0.154
AAAUCAUGUGUGUCCAAUAUUGAAAGUGCUUUAUCUACACUCCAGUAUGUAAGCAGUAUAGUAGUUUCUUUAGAGAAUAGGUCAGCCAUUGUAAAGUACAAUGCAAGCUUAGUCACUCCA	8.07
GAGUCGAGCAAACUUGAAACUACAGAAUAUCUUGCAGCCUCAGUGUUCACUUGCUUGGCGAUAGCAUUGGGGUUUUAUAGGUUCUGGGGAAGUAGUAGACGAUGAUGCUGCCGCUGCUGC	0.584
UACUCAACUUUCUUGCCACAUUUUGAAUUCCAAGACAUUAUUCCUCCAGAUGACUUCCUAACUAGUGAUGAAGAGCAAGAUUCCGUUUUAUUUGGAACUAUGAGAGGACAAGUUGUUGGA	0.393
AGAGAUAAGACAUCCAGAAAUAUGAGAGGCUCCCGGAUGAAUGGGUUGCCUAGCCCCACUCACAGCGCCCACUGUAGCUUCUACCGAACCAGAACCUUGCAGGCACUAAGUAAUGAGAAG	0.223
AAAGAGUGGAUAGAGUGUGCACACGGGAUCGGUUAUACCCGGGCGAAAAAGGAGUGCAAGAUAGAGUUCGAUGACUUCGAAGAGUGCUUGCUUCGGUAGAAAACGAUGAGGCGAAUGCAU	0.571

Set 6
Target: CREB3L3, bZIP domain (human)
Method: DHFR protein complementation
Sample: yeast
Notes: single substitutions, most at no-binding floor
Baseline: wild-type JUN-FOS pair
Reading: higher = stronger binding
Parent: JUN, bZIP domain (human); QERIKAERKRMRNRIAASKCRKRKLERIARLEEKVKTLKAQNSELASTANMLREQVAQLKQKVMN; partner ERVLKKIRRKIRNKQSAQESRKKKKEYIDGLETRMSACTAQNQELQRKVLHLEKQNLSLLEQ
Substitution	binding fitness [natural log]
I28T	-1.54
K36T	-1.43
A29P	-1.56
N42V	-1.45
N42H	-1.43
K36L	-1.28
K39G	-1.43
T37N	-1.32
L45G	-1.52
N42R	-1.42
V56T	-1.5
A46Y	-1.18
S43F	-1.52
L31C	-1.41

Set 7
Target: Interferon regulatory factor 7, full length, phosphomimetic (IRF7, Homo sapiens, UniProt Q92985, residues 1-503, S471D/S472D/S475D/S476D/S477D/S483D/S484D/S487D)
Chain of UniProt Q92985 (whole entry, unmodified, looked up): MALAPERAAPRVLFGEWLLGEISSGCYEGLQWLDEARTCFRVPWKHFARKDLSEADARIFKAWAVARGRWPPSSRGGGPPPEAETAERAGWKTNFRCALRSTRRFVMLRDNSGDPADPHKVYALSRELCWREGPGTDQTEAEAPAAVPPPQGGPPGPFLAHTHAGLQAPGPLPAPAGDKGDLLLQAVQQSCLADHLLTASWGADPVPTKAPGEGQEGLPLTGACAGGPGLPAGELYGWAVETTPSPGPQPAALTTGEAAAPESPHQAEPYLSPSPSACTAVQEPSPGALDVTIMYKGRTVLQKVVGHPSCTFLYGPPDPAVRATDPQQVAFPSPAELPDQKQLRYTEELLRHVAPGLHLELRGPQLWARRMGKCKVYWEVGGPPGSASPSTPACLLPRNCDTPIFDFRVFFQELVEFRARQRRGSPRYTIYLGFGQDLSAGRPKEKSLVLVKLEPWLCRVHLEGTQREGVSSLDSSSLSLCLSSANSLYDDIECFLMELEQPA
Method: protein-binding microarray
Form: double-stranded DNA, one strand shown
Sample: in vitro
Concentration: 2200 nM top
Notes: 60-bp whole probe
Added: salmon DNA 0.4 mg/ml
Baseline: random background probes
Reading: higher = stronger binding
Constant ends, left off below: GCCTAGCAC … GTCTTGATTCGCTTGACGCTGCTG
Oligonucleotide	fitted relative affinity [z-score]
AACGGTATCGACTTTCGGGACGTGCTA	3.22
CTCATTCTCTGCTTCTGTATGTGCTAG	2.36
CTTAGACTGTCCTGCTGGAGGTGCTAG	0.0882
GGTTTTCTCTGGTTCTTGCTGTGCTAG	2.33
TTAGGTTTCCTTCTCATTTAGTGCTAG	1.74
GACGGTTTCGGAATCGGGACGTGCTAG	6.38
GATGTTTTGAGTTTTCCTTCGTGCTAG	1.93
GACAATCTCAGTTTCGAGACGTGCTAG	3.45
GACGGACTGCTACTACTGACGTGCTAG	0.321
TCAGTCATCTATAATGGAACTGTGCTA	0.0295
TTAGATCTCTGACTGGATTAGTGCTAG	-0.094
TTAGGACTGGACACTGAGTTAGTGCTA	-0.672
TTAGGTATCCGTCTCCTTTAGTGCTAG	0.985
GCCCCACCCACTCTGGCCCCGTGCTAG	-0.0145
TTAGATATCGGGACAGGATTAGTGCTA	-0.472
AAGGAAATCGGTGATCAGTCTGTGCTA	-0.433
TTAGAACTAAGTTTCGATTAGTGCTAG	4.83

Excerpt of the above (set 7):
Oligonucleotide	fitted relative affinity [z-score]
GATGTTTTGAGTTTTCCTTCGTGCTAG	1.93
GACAATCTCAGTTTCGAGACGTGCTAG	3.45
GACGGACTGCTACTACTGACGTGCTAG	0.321
TCAGTCATCTATAATGGAACTGTGCTA	0.0295
TTAGATCTCTGACTGGATTAGTGCTAG	-0.094
TTAGGACTGGACACTGAGTTAGTGCTA	-0.672
TTAGGTATCCGTCTCCTTTAGTGCTAG	0.985
GCCCCACCCACTCTGGCCCCGTGCTAG	-0.0145
TTAGATATCGGGACAGGATTAGTGCTA	-0.472
